# Measured values collected from several papers.
# Parts stem from different laboratories: compare values within a part only.

# Sample 1 — technique: Sort-seq; item: YFP reporter; medium: E. coli; notes: PhoQ-PhoP variant library; added: 10 µM Mg2+; relative to: high Mg2+ state; direction: higher = stronger signaling
# Substance: PhoQ, residues 284 288 289 292 302 303 TNASYF
target,fold induction
"PhoP, residues 12 14 15 18 19 TQALL (Escherichia coli, UniProt P23836)",11.1
"PhoP, residues 12 14 15 18 19 NYFRM (Escherichia coli, UniProt P23836)",1.71
"PhoP, residues 12 14 15 18 19 QYFSL (Escherichia coli, UniProt P23836)",13.9

# Sample 2 — technique: universal PBM; molecule type: double-stranded DNA, one strand shown; medium: in vitro; tested at: not given; direction: higher = stronger binding
# Target: Sal-like protein 4, full length isoform B (SALL4, Homo sapiens, UniProt Q9UJQ4-2, residues 1-616)
# Notes: 8-mer, flanks averaged, mean of replicates
# Residues (chain): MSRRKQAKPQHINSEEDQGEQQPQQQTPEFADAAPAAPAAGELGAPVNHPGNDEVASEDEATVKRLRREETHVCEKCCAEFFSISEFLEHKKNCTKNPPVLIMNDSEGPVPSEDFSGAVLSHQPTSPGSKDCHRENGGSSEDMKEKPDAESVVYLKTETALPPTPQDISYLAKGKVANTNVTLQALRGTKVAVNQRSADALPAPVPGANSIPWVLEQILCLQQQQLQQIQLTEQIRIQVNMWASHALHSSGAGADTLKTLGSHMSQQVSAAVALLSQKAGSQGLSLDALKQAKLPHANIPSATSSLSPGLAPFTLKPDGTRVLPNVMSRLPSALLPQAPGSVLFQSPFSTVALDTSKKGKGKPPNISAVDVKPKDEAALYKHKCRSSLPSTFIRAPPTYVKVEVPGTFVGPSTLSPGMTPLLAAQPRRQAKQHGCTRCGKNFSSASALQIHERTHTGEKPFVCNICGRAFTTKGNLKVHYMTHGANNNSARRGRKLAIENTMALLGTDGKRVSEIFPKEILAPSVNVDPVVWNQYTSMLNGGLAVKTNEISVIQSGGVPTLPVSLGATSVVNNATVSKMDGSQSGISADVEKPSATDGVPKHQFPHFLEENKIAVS
Oligonucleotide,E-score
ACGGGCAA,-0.0899
CCTTCTGA,0.124
TGAGTTAA,0.162
CTCTCGCA,-0.17
ACATGGTC,0.00307
AGTAAGGC,-0.042
CGCACCGC,-0.316
CCCGATCC,-0.253
TGGATGAA,0.11
CGAATGAG,-0.0292
AGGTGCCA,-0.141

# Sample 3 — technique: RNA Bind-n-Seq; molecule type: RNA; medium: in vitro; tested at: 200 nM; notes: whole 134-nt RNA, ends assumed; added: 150 mM KCl; relative to: input library; direction: higher = stronger binding
# Target: Fragile X messenger ribonucleoprotein 1, C-terminal low-complexity region (Fmr1, Mus musculus, UniProt P35922)
Oligonucleotide,log2 enrichment
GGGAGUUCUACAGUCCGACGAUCGCAGGAAGUAAAAACAAAUGGAAAUGCUAAAGAUAGUGGCAGGGGUGGGGGUUGCUAAGGAAAGGGUGGGAUGGGAGUGGGUAAAGAGUUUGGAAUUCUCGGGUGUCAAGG,0.525
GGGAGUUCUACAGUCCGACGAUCUCAAGUCCUGUGCUACACAUCGUAUGUACCGAAUCGGUUUUUUUGGUGGAAAGGAAAGUAUUAUGUUACGCCGUUCGGAUCUGCACUUCCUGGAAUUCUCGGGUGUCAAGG,-0.431
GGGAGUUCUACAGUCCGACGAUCUAACUUUAGAGGAGGCUCUGAUGGAUAUGGCAGUGGACGUGGAUUUGGGGAUGGCUAUAAUGGGUAUGGAGGAGGACCUGGAGGUGGCAAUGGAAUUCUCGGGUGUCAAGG,0.374
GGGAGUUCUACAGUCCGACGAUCCCUCAAGUCCUGUGCUACACAUCGUAUGUACCGAAUCGGAAAGGUGGUUUGGAAAGUAUUAUGUUACGCCGUUCGGAUCUGCACUUCCAGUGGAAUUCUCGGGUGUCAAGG,-0.355
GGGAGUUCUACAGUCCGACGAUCAAGUCCUGUGCUACACAUCGUAUGUACCGAAUCGGUUUUUGGAAAAAGGAAAAAGGAAAGUAUUAUGUUACGCCGUUCGGAUCUGCACUUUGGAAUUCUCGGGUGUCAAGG,-0.852
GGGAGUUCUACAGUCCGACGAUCACCAUGCAGGUGGGCAUCUUUGGGAAGUGGGGCAAGGGGGGGAUAGGGAGGGGGGUAACACUUUGGGAACAGGUGGUCCCCGGUCGUUUCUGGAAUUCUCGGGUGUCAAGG,0.739
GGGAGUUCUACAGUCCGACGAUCACCAUGCAGGUGGGCAUCUUUGGGAAGUAAAGCAAGGGGGGGAUAGGGAGGGGGGUAACACUUUGGGAACAGGUGGUCCCAGGUCGUUUCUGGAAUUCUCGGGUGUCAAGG,0.932
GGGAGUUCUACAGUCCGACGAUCUCCUCAAGUCCUGUGCUACACAUCGUAUGUACCGAAUCGGUGGGUGGUGGGAAAGUAUUAUGUUACGCCGUUCGGAUCUGCACUUCCAGCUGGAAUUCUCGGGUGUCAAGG,0.0792
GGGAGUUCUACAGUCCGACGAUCUCCUGUGCUACACAUCGUAUGUACCGAAUCAAAUUUUUUUAAAUUUAAACCCCCCCAAAAAAGUAUUAUGUUACGCCGUUCGGAUCUGCAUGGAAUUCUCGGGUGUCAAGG,0.235

# Sample 4 — technique: RNA Bind-n-Seq; molecule type: RNA; medium: in vitro; tested at: 100 nM; relative to: input RNA pool; direction: higher = stronger binding
# Target: RING finger protein unkempt homolog, zinc fingers 1-6, SBP tag (UNK, Homo sapiens, UniProt Q9C0B0, residues 30-357)
# Sequence of UniProt Q9C0B0 (30-357, looked up): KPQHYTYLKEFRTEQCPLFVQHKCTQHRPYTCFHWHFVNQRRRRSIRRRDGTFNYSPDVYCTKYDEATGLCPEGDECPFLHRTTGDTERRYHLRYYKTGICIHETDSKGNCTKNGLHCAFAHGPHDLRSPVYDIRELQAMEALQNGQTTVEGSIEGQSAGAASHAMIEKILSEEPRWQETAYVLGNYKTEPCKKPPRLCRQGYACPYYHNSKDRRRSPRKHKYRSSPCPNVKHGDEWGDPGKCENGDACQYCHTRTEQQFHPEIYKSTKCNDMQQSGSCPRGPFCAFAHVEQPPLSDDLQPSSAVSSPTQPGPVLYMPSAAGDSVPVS
# Notes: RNA with constant flanks, vertebrate orthologous sites, ends assumed
Oligonucleotide,bound/input enrichment
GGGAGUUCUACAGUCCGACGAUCAUCUCUCAGUGACAGCAUUCCAUCUGUGGCUGACUCCCACUCGAGUCAUUUUUCUGAAUUCAGUUGCUCUGACUUGGAAAGCAUGAAGACUUCUUGUAGUCAUGGCUCCAAUGAUUAUCACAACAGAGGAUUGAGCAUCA,0.312 ratio
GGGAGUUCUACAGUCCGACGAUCAAGUCAAUGCAGUCCCACUUACUCAAGCUGCAGCUGAAAGGCUAUCCCAGUACGUGUUGGUAGUUCCUGAGAGAGUUAUAGCUGGUGUUGCCUUGUGGUCUACCCCUUGUUUCAGGCCUCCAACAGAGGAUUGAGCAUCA,0.206 ratio
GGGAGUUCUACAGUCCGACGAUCGGCAGCCAGUGGGGGUUGUCCCCCUCCCUGGCCUUGCCUCCCCUCCCUGCCACCUGCCCCUCCUUAUUUUUUUUUAACCACCAUGUGAUUAAGGUUGGCGCUGCCUCCCCCGACCUACUCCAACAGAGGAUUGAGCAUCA,0.827 ratio
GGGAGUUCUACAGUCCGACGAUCGAUUUGAUUCUUUAUGUGUUUUUGUUGUUUUUUUUUAAGGCAUAAAAACAUUUUAAAAAGAGAAAAAUCCCAACAAACCAUUUUUAAAGUAGAAGAGGGUUUUAGCUAGAAACAUGUAUUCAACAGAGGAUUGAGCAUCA,0.697 ratio
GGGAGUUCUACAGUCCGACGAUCAGGUAGUCUGGGUAGGGGUGAGCAUUAACUUAUAAAGGAAUGAAAUGCUAAAAAUCCUAUUAGUACUAAGUUUAGUGGGAGAAUUUACAUAAACUCUUUUUACAUAAUUCUAAAAUGAAACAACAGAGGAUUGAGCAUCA,0.587 ratio
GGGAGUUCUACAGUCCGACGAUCUUUCAAUCUCUUUUCCCCUGUCCUGAUUUUAAAAGCCCCCUCCUUUUUUUUUUCUUUUUUUAGGCAUAUGUAGUAAUAUUAGAAACAUUUAAUUUGGGAAACUUUGAUUCUUGAAAGAGACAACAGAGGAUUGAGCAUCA,1.23 ratio
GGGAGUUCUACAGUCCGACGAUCGUUAAUGUGUUAUUUAUUGAGUAUAGUUUGUGCUAAGCAUUGUGUUCGAUUUAAAAAAAUUAGUGGAUUGACUCCACUUUGUUGUGUUGUUUUCAUUGUUGAAAAUAAAUAUAACUUUGUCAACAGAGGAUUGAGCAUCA,0.36 ratio
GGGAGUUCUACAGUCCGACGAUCGGUCAUGUAUAGCAAUUAGAGUGGGUUGCCCUUCUACUUCUCCCAAGAAGAAAUCCCAUAUAGAUUCCUUUCAUGUCAGAUUAUACUGUUCUGAUUUUAUUUUCUAUUAUUUUUACAUAUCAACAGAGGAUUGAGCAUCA,0.803 ratio

# Repeated from above (sample 4):
Oligonucleotide,bound/input enrichment
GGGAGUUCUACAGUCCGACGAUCAGGUAGUCUGGGUAGGGGUGAGCAUUAACUUAUAAAGGAAUGAAAUGCUAAAAAUCCUAUUAGUACUAAGUUUAGUGGGAGAAUUUACAUAAACUCUUUUUACAUAAUUCUAAAAUGAAACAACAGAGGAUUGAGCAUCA,0.587 ratio
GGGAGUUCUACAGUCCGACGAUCGUUAAUGUGUUAUUUAUUGAGUAUAGUUUGUGCUAAGCAUUGUGUUCGAUUUAAAAAAAUUAGUGGAUUGACUCCACUUUGUUGUGUUGUUUUCAUUGUUGAAAAUAAAUAUAACUUUGUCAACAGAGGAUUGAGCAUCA,0.36 ratio
